Measurements of several laboratories.
Each numbered part is a random draw from the data of one study; scales do not carry over between parts.

Series 1
Target: Interferon regulatory factor 3, full length, phosphomimetic (IRF3, Homo sapiens, UniProt Q14653, residues 1-427, S386D/S396D/S398D/S402D/T404D/S405D)
UniProt Q14653, sequence (whole entry, unmodified, looked up): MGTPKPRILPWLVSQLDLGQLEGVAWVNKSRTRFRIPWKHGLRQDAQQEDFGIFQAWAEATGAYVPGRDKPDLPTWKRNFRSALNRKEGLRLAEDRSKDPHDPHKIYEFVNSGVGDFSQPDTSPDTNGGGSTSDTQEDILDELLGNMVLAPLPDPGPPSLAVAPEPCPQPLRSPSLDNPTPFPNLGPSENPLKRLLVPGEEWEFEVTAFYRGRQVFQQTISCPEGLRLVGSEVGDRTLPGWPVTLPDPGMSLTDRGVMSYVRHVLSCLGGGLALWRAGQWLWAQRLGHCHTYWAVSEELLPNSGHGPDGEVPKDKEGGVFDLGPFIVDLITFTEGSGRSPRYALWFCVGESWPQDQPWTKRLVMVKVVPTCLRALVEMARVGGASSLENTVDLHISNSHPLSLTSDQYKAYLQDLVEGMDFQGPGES
Technique: protein-binding microarray
Molecule type: double-stranded DNA, one strand shown
Matrix: in vitro
Tested at: 2540 nM top
Notes: 60-bp whole probe
Added: salmon DNA 0.4 mg/ml
Relative to: random background probes
Direction: higher = stronger binding
Shared flanks, not repeated: GCCTAGCAC … GTCTTGATTCGCTTGACGCTGCTG
| Strand | fitted relative affinity |
| --- | --- |
| TTAGATTGCAGACTGGATTAGTGCTAG | -0.12 z-score |
| TTAGATTTCGGTTCCGGTTAGTGCTAG | 7.3 z-score |
| TTACATATCGGGACTGGATTAGTGCTA | 0.437 z-score |
| TCAGGGCTCTTCTCTGAAACTGTGCTA | -0.191 z-score |
| TCACTTTTTTTAATTGAACTGTGCTAG | 1.14 z-score |
| TCAATACTCTTCCATGGAACTGTGCTA | -0.0683 z-score |
| CCCTAGTTGTGTCTTGCCATGTGCTAG | 0.448 z-score |
| TCATCTTTCCACTTTCTACTGTGCTAG | 2.88 z-score |

Series 2
Target: RNA binding protein fox-1 homolog 2, RRM domain, GST-SBP tag (RBFOX2, Homo sapiens, UniProt O43251-10, residues 100-194)
Technique: RNA Bind-n-Seq
Molecule type: RNA
Matrix: in vitro
Tested at: 365 nM
Notes: natural RNA segment, single round, ends assumed
Relative to: no-protein control
Direction: higher = stronger binding
Shared flanks, not repeated: GGGAGUUCUACAGUCCGACGAUC … UGGAAUUCUCGGGUGCCAA
Construct (chain): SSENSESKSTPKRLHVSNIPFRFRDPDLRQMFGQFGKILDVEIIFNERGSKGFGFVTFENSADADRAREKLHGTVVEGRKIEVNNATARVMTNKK
| Strand | RBNS enrichment (R) |
| --- | --- |
| GAUGUUUUAUGUUUUAUAUUUAUAAUGUUCAAAAUGCAAGCAUAACAUUUAAUAUUUGUCCACAUGGUUUUACAAAAGUAAAUCUUAAAUUACUAAGCUUUUCCCAUAUG | 0.731 |
| GCAGGUGAAUCAUAAAGUCAGUGAAGACGCCGCCCUCUGAUUCUCCCCACUGUAGGGGGAAGGAAGGGAGUGACUUCAGUGGGUUCUCUACCAAAAACAGGGCUAAGGGC | 0.364 |
| AAUUAAAAAAACAAAAAUAAAGUCUAAUAAGAACUUUGGUACAGGAACUUUUUUGUAAUAUACAUGUAUGAAUUGUUCAUCGAGUUUUUAUAUUAAUUUUAAUUUGCUGC | 0.972 |
| AGGUGUGCCUUGUGUCUGUGCUUCUCCGCUCUCUGAAAGGAUGGAUGGAUCUGAAGUUCUCAGCCCUCACCCCACACUGCUGGAAUCUUCUGUAGAGCUGCCUGCCAAGC | 0.249 |
| CAGGAAAAACCCAAAGAAAGCGGCCAAAUGUUGCGACAAUUAAGAAGACAGCACUCACUGGGAUGAAGCAGGGAGCAGGGCUGCCGCCACCCACAUUCCACUCUAGUUGG | 0.369 |
| UUACUGUGUUCUGCCCAGGCACCUGAUGAGGUACAUCCUGCAGUGCCUCUCUGUGCUUGGCUCUGGCAGAAGGCACCCAGUGACAUCAGGCAUCAGGCCCAGUGACAGUG | 0.429 |
| CUCAAAAGUUAAGAGCAAAUUAUGGAAGAAUAAUUUGAUGUCUUUGAGAAACCAUGAGGUUUCUUUGUAUUAAAAUUUGAAAUAAAUUUCUACUUAUCUUUUGGUAUUGG | 0.625 |
| UCUCCAUGAAACUCUGUGGUUUCAUCAUUCCUUCUUAGUUGACCUGCACAGCUUGGUUAGACCUAGAUUUAACCCUAAGGUAAGAUGCUGGGGUAUAGAACGCUAAGAAU | 0.245 |

Series 3
Target: Histone acetyltransferase KAT6A, winged helix 1, GST fusion (KAT6A, Homo sapiens, UniProt Q92794, residues 1-85)
Technique: protein binding microarray
Molecule type: double-stranded DNA, one strand shown
Matrix: in vitro
Tested at: not given
Notes: 8-mer, flanks averaged, mean of 2 arrays, mostly near background
Relative to: not given
Direction: higher = stronger binding
Construct (chain): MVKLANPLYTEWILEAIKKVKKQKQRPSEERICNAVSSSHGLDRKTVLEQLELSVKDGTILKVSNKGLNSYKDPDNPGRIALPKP
| Strand | E-score |
| --- | --- |
| CGATAACC | 0.126 |
| GTCAAATA | -0.0997 |
| CGCGCGAG | 0.424 |
| AATTTCAT | -0.311 |
| AATTCACT | -0.184 |
| GCTTGGAA | -0.13 |
| CTTTGCGA | 0.0755 |
| ATGGCTTC | -0.197 |

Series 4
Target: Replicase polyprotein 1ab, polymerase (rep, Severe acute respiratory syndrome coronavirus 2, UniProt P0DTD1)
Effect on: enzyme activity
Action: inhibitor
Tested at: 20 µM
| SMILES | inhibition [%] |
| --- | --- |
| COc1c2ccoc2cc2oc(=O)ccc12 | -3.19 |
| Cl/C(=C\n1cncn1)c1ccc(Cl)cc1Cl | 1.86 |
| O=C(O)CNC(=O)C(CS)Cc1ccccc1 (stereo not shown) | 0.01 |
| OC(c1ccccc1)C1CCN(CCc2ccccc2)CC1 (stereo not shown) | -2.69 |
| C[C@H](Cc1ccc(O)c(O)c1)[C@@H](C)Cc1ccc(O)c(O)c1 | 3.38 |
| N#C/C(=C\c1ccc(O)c(O)c1)C(=O)NCCCc1ccccc1 | 99.1 |
| CC(C)(O)CC(=O)O | -4.9 |
| CC1(C)[C@H]2CC[C@]1(C)C(=O)C2 | -0.72 |
| CCNCCCNCCCCNCCCNCC | -6.59 |
| COc1ccc(CCC(=O)Nc2nc3ccc(Cl)cc3s2)cc1OC | -6.68 |
| CC(C)(O)CS(=O)(=O)Nc1ccc2c(c1)CCN(C(=O)COc1cccnc1)C2 | -2.41 |
| C[C@@H](Oc1ccc(Cl)cc1)c1ccnc2ncnn12 | -1.41 |
| CCCOc1ccc2[nH]c(NC(=O)OC)nc2c1 | -2.21 |
| CC(C)(C)NCC(O)CSc1nc(-c2ccc(C(N)=O)s2)cs1 (stereo not shown) | 16.9 |
| O=C(NCCCCCCNC(=O)ON=C1CCCCC1)ON=C1CCCCC1 | -3.36 |
| CCC(=O)OCN1C(=O)C=CC1=O | -2.04 |
| O=c1c2c(c1=O)N(CCP(=O)(O)O)CCCN2 | 3.8 |
| CC(=O)[C@@]12O[C@](C)(c3ccccc3)O[C@@H]1C[C@H]1[C@@H]3CCC4=CC(=O)CC[C@]4(C)[C@H]3CC[C@@]12C | 1.16 |
| CC(C)(C)c1cc(/C=C(\C#N)C(N)=S)cc(C(C)(C)C)c1O | 3.78 |
| CS(=O)(=O)CS(=O)(=O)OCCCl | 2.31 |
| CC(=O)O[C@H]1Cc2ccccc2N(C(N)=O)c2ccccc21 | -4.09 |
| CC(C)(C)[N+]([O-])=Cc1ccc(S(=O)(=O)O)cc1S(=O)(=O)O | -0.12 |
| CCCCOCCOc1nc(-c2ccc(C(=O)O)c(F)c2)sc1C | -0.35 |
| O=C(O)c1ccc2c(c1)nc(Nc1cccc(Cl)c1)c1ccncc12 | 2.21 |
| Cc1c(-c2ccccc2)oc2c(C(=O)OCCN3CCCCC3)cccc2c1=O | 2.22 |

Series 5
Target: Replicase polyprotein 1ab, main protease (rep, Severe acute respiratory syndrome coronavirus 2, UniProt P0DTD1)
Effect on: enzyme activity
Action: inhibitor
Tested at: 20 µM
Notes: primary screen
| Structure (SMILES) | inhibition [%] |
| --- | --- |
| CC1=C(O)C(=O)[C@@H]2O[C@@H]2C1=O | 65.4 |
| C=C1C(=O)[C@]23[C@H](O)[C@H]1CC[C@@H]2[C@@]12CO[C@]3(O)C[C@@H]1C(C)(C)CC[C@@H]2O | 98.2 |
| O=C(O)Cn1c2c(c3cc(F)ccc31)CN(C(=O)c1cccc3ccccc13)CC2 | 26.3 |

A few entries again (series 4):
| SMILES | inhibition [%] |
| --- | --- |
| C[C@H](Cc1ccc(O)c(O)c1)[C@@H](C)Cc1ccc(O)c(O)c1 | 3.38 |
| Cc1c(-c2ccccc2)oc2c(C(=O)OCCN3CCCCC3)cccc2c1=O | 2.22 |
| CC(C)(C)NCC(O)CSc1nc(-c2ccc(C(N)=O)s2)cs1 (stereo not shown) | 16.9 |
| COc1c2ccoc2cc2oc(=O)ccc12 | -3.19 |
| COc1ccc(CCC(=O)Nc2nc3ccc(Cl)cc3s2)cc1OC | -6.68 |
| C[C@@H](Oc1ccc(Cl)cc1)c1ccnc2ncnn12 | -1.41 |
